Measured values from different studies.
Parts stem from different laboratories: compare values within a part only. Several values in a cell are separate wells, animals, samples, runs or records.
Chain of UniProt P21860 (whole entry, looked up): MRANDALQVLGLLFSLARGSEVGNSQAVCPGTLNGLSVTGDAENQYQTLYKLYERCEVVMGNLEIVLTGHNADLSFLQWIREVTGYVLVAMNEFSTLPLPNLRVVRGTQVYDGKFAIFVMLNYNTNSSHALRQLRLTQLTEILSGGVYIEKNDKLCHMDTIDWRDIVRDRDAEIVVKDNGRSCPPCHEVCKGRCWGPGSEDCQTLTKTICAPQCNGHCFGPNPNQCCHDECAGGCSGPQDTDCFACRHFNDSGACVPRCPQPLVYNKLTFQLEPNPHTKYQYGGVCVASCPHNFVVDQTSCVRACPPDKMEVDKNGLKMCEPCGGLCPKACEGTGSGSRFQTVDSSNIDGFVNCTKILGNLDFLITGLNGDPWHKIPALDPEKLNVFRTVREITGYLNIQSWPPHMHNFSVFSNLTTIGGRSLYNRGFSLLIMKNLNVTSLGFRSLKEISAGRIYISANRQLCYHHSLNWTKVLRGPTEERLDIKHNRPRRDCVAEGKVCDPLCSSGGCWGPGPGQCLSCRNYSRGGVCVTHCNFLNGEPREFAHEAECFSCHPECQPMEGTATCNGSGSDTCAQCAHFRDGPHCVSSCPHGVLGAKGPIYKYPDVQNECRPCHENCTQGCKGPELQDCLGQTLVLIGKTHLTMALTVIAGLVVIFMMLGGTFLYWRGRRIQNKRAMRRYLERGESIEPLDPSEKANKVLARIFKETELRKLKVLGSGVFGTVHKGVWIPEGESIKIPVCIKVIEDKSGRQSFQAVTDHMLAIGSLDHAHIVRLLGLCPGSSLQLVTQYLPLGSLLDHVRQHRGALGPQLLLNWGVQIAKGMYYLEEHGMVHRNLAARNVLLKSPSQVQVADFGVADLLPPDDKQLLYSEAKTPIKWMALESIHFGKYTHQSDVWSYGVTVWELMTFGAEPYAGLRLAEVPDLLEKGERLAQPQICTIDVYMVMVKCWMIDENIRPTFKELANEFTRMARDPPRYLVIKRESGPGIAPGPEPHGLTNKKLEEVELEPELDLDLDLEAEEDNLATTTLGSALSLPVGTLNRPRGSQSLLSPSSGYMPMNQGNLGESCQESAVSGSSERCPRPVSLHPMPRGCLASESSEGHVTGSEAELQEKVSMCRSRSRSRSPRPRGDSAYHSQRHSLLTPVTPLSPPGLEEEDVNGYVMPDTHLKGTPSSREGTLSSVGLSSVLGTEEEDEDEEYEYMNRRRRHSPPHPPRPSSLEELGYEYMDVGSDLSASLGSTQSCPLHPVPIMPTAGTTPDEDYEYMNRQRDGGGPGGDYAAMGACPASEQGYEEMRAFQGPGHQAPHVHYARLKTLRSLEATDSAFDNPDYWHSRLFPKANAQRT
Chain of UniProt Q8NEV4 (whole entry, looked up): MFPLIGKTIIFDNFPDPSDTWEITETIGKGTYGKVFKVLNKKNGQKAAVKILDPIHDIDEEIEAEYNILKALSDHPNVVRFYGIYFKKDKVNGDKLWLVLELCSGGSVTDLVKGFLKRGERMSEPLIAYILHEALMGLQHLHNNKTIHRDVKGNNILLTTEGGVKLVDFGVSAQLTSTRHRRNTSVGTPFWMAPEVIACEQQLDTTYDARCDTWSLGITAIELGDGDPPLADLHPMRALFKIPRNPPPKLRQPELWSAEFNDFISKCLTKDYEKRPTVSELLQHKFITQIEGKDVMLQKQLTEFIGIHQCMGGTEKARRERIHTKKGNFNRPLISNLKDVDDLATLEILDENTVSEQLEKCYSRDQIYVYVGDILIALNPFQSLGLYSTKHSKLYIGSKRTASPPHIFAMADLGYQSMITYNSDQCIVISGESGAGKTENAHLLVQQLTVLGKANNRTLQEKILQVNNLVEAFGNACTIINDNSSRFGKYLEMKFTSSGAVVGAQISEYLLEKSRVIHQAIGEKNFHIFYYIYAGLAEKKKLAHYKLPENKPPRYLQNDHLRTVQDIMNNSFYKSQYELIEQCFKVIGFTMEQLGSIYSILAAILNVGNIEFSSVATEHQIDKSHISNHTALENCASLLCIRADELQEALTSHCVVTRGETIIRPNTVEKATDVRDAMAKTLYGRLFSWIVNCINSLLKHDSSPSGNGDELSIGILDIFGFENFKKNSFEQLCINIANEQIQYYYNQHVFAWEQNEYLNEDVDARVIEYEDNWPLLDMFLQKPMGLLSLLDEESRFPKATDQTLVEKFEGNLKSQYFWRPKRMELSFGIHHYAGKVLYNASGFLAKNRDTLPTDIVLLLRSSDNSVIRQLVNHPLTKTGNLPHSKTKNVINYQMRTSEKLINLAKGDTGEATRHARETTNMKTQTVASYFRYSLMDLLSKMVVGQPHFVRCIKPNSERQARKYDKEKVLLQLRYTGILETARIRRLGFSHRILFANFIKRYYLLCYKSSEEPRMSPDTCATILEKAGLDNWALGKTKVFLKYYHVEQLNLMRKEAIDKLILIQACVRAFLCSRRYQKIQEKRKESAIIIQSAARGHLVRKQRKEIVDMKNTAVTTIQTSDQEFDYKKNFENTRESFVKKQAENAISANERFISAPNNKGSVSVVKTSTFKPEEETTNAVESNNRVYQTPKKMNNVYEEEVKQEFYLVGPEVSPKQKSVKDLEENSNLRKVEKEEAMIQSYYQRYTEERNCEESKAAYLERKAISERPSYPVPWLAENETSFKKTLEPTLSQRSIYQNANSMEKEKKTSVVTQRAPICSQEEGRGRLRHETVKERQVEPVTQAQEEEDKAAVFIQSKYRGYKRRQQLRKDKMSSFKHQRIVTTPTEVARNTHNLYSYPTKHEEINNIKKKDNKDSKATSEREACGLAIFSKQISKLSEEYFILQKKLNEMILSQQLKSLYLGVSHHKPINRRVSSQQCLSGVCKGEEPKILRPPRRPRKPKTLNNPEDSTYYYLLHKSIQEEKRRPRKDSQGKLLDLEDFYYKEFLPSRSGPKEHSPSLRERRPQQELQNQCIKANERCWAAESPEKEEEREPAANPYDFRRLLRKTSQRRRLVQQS
Chain of UniProt P53355 (whole entry, looked up): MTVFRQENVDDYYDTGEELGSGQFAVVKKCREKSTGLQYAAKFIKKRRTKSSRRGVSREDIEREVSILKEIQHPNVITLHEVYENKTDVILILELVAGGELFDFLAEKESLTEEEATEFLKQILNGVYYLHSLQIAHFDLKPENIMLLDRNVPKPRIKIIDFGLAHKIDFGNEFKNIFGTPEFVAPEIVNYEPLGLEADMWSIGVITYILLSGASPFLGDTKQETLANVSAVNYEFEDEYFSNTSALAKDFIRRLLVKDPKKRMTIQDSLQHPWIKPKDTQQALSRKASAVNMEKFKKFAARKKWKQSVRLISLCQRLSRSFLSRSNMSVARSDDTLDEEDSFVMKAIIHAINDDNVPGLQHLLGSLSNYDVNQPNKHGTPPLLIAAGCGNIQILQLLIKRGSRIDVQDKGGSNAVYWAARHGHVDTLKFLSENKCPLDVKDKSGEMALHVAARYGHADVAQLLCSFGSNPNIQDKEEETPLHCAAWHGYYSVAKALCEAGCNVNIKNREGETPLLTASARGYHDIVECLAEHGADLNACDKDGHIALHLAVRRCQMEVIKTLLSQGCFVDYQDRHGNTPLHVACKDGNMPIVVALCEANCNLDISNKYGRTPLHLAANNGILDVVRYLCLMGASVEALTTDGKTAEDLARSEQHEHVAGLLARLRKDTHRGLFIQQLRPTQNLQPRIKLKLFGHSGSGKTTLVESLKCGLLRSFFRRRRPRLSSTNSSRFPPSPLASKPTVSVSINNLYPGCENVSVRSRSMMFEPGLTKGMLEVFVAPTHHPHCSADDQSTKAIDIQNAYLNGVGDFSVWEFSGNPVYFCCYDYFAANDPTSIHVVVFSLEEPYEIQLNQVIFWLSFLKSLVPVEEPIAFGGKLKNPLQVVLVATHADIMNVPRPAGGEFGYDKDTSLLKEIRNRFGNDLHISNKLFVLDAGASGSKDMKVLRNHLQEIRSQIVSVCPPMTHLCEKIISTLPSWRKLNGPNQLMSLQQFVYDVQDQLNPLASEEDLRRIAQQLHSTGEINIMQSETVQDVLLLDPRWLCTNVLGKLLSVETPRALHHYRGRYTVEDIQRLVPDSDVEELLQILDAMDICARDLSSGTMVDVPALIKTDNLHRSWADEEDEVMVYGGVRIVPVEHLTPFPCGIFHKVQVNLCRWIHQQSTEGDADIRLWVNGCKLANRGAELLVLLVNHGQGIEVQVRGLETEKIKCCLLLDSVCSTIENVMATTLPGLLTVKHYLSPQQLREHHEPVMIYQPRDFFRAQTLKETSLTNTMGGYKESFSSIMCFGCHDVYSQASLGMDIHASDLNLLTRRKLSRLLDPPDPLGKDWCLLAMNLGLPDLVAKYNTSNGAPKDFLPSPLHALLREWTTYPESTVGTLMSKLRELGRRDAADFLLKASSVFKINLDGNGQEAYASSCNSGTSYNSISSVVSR
Chain of UniProt Q86YV6 (whole entry, looked up): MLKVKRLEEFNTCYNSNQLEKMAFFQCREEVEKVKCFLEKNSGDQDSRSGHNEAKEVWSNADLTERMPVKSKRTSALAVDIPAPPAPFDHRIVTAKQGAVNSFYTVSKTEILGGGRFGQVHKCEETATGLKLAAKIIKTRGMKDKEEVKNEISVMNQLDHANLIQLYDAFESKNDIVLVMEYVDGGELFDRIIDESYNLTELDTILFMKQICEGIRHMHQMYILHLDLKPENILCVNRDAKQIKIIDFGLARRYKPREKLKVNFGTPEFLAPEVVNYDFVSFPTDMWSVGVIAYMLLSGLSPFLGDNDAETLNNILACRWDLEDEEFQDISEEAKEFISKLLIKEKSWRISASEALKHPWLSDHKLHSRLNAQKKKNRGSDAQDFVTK

Set 1 — read-out: enzyme activity; action: inhibitor; tested at: 0.5 µM; relative to: control; endpoint: remaining activity
Target: Cyclin-dependent kinase 5, with p35 (CDK5, Homo sapiens, UniProt Q00535)
Chain of UniProt Q00535 (whole entry, looked up): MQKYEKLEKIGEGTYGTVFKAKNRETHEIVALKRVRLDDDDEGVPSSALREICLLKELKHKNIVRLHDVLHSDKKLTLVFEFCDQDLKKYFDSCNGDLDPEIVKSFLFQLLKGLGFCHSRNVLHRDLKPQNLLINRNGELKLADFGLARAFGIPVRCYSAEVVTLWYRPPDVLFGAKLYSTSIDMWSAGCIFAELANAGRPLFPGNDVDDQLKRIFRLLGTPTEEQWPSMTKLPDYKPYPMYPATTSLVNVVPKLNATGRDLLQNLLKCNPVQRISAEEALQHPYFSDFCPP
O=C1Cc2c([nH]c3ccc([N+](=O)[O-])cc23)-c2ccccc2N1: 7.98%
Nc1ncnc2c1cnn2-c1ccccc1: 99.2%
Cc1ccc(NC2=CC(=O)c3sc(C)nc3C2=O)cc1: 86.3%
CC[n+]1c(/C=C/N(C)c2ccccc2)n(-c2ccccc2)c2ccc(-c3nc4ccccc4s3)cc21: 97.6%
CCc1[nH]c(-c2ccc(OC)cc2)nc1-c1ccncc1: 100%
CC(=O)c1ccc(N2CCOCC2)cc1O: 97.1%
COc1cc(Nc2c(C#N)cnc3cc(OCCCN4CCN(C)CC4)c(OC)cc23)c(Cl)cc1Cl: 98.3%
Nc1nccc(-c2c(-c3ccc(F)cc3)ncn2C2CCNCC2)n1: 102%
NC(=O)c1ccc(N(C(N)=O)c2c(F)cccc2F)nc1-c1ccc(F)cc1F: 99.9%
Cc1cncc2cccc(S(=O)(=O)N3CCCN(C(=O)CN)C[C@@H]3C)c12: 97.4%
N#CC(=C(N)Sc1ccc(N)cc1)c1ccccc1C(F)(F)F: 103%
CC(C)(C)n1nc(Cc2cccc3ccccc23)c2c(N)ncnc21: 95.6%
CSc1nc(-c2ccnc(N[C@@H](C)c3ccccc3)c2)c(-c2ccc(F)cc2)[nH]1 (racemic): 101%
CCCC(=O)Oc1ccc2[nH]c(C(=O)c3cc4ccccc4[nH]3)cc2c1: 97.5%
Fc1ccc(-c2nc3n(c2-c2ccncc2)CCS3)cc1: 97.8%

Set 2 — cell line: mouse MPNST tumor cells; technique: high-content immunofluorescence imaging; measured: nuclear SOX9; tested at: 10 µM; time: 12 h; setting: mean of 2 replicates; relative to: DMSO control; reading: higher = more nuclear SOX9; endpoint: nuclear SOX9 intensity
CCOC(=O)[C@H](CCc1ccccc1)N[C@H]1CCc2ccccc2N(CC(=O)O)C1=O: 94.9 % of DMSO and 93.6 % of DMSO
Cc1cccc(N2CCN(C(=O)c3cc(S(=O)(=O)N(C)C)ccc3N3CCCC3)CC2)c1C: 89.8 % of DMSO
CCCCOc1ccc(C(=O)CCN2CCCCC2)cc1: 110 % of DMSO
CN1[C@@H]2CC[C@H]1C[C@@H](OC(=O)C(O)c1ccccc1)C2 (mixture of isomers): 98.3 % of DMSO

Set 3 — technique: competition with immobilised ligand; tested at: 1 µM; endpoint: remaining binding
SMILES: C[C@@H](c1cccc(C#N)c1)n1cc(Cl)cc(C(N)=O)c1=N
MYLK (Homo sapiens, UniProt Q15746); cell-free assay: 88%
DAPK1 (Homo sapiens, UniProt P53355); cell-free assay: 100%
ERBB3 (Homo sapiens, UniProt P21860); cell-free assay: 91%
PRKD2 (Homo sapiens, UniProt Q9BZL6); cell-free assay: 91%
FGFR4 (Homo sapiens, UniProt P22455); cell-free assay: 100%
PLK2 (Homo sapiens, UniProt Q9NYY3); cell-free assay: 97%
PIK3C3 (Homo sapiens, UniProt Q8NEB9); cell-free assay: 97%
PRKG1 (Homo sapiens, UniProt Q13976); cell-free assay: 100%
TESK1 (Homo sapiens, UniProt Q15569); cell-free assay: 74%
CDK11B (Homo sapiens, UniProt P21127); cell-free assay: 86%
MYLK4 (Homo sapiens, UniProt Q86YV6); cell-free assay: 100%
Myosin-IIIa (MYO3A, Homo sapiens, UniProt Q8NEV4); binding: 99%
PKN1 (Homo sapiens, UniProt Q16512); cell-free assay: 83%

Set 4 — host: mouse; medium: microsomes or S9; tested at: 2 µM; time: 0.5 h; endpoint: remaining compound
Cc1c(C(=O)O)[nH]c(CCNC(=O)OC(C)(C)C)c1S(N)(=O)=O: 75.4%
CC1=C2C(CCS2(=O)=O)CC2(C1)C(=O)OC(C)(C)OC2=O (stereo not drawn): > 99%
O=c1c2c3nc4ccccc4nc3n(C3CCCC3)c2ncn1Cc1ccco1: 38.6%
O=C(Nc1ccc(Cc2nnn[nH]2)cc1)C1CCN(c2ccc(Cl)cn2)CC1: 96%

Repeated from above (set 1):
CC(C)(C)n1nc(Cc2cccc3ccccc23)c2c(N)ncnc21: 95.6%
CSc1nc(-c2ccnc(N[C@@H](C)c3ccccc3)c2)c(-c2ccc(F)cc2)[nH]1 (racemic): 101%
CCCC(=O)Oc1ccc2[nH]c(C(=O)c3cc4ccccc4[nH]3)cc2c1: 97.5%
